Measured values from different studies.
Each line is one published result; not all experiments were run side by side.
Observed: metabolic stability
Species: human

CCN(CC)CC#CCNc1ccnc2cc(Cl)ccc12
scaled CLint (liver microsomes; 1 µM, pH 7.4): 159 mL/min/kg

CCc1nc(N)nc(N)c1C#CC(C)c1cc(-c2cc(C)nc(C)c2)ccc1Cl (centres unmarked)
scaled CLint (hepatocytes; 1 µM): ~0.019 mL/min/kg

COC[C@H]1C[C@H]2CSC(N)=N[C@@]2(c2ccc(F)cc2F)CO1
scaled CLint (liver microsomes): 67 mL/min/kg

C=C(C)C(=O)Nc1ccc(-c2c(-c3ccc(Oc4nccc(C)n4)cc3)c3c(N)ncnc3n2C)cc1
hepatocyte CLint (hepatocytes): < 2.2 µL/min/10⁶ cells

CCC/C(=C\C1=C(F)C(=O)c2ccccc2C1=O)C(=O)N(CC)CC
scaled CLint (liver microsomes; 1 µM, pH 7.4): 2.9 mL/min/kg

COc1ccc2c(c1OCc1ccccc1)C[C@@H](C(=O)O)N(c1nc3ccc(C#N)cc3o1)C2
scaled CLint (liver microsomes; 1 µM, pH 7.4): 1.5 mL/min/kg

CCNCC#CCNc1ccnc2cc(Cl)ccc12
scaled CLint (liver microsomes; 1 µM, pH 7.4): 8 mL/min/kg

CCC/C(=C\C1=C(OC)C(=O)c2ccccc2C1=O)C(=O)NOC
scaled CLint (liver microsomes; 1 µM, pH 7.4): 40.6 mL/min/kg

A few entries again:
CCC/C(=C\C1=C(OC)C(=O)c2ccccc2C1=O)C(=O)NOC
scaled CLint (liver microsomes; 1 µM, pH 7.4): 40.6 mL/min/kg
